Assay results collected from several papers.
Protocols differ between the studies behind these lines. Several values in a cell are separate wells, animals, samples, runs or records. Numbers after ± are the reported error.
G-protein coupled receptor 39: G-protein coupled receptor 39 (Mus musculus, UniProt Q5U431)
UniProt Q9SZU7, sequence (whole entry, unmodified, looked up): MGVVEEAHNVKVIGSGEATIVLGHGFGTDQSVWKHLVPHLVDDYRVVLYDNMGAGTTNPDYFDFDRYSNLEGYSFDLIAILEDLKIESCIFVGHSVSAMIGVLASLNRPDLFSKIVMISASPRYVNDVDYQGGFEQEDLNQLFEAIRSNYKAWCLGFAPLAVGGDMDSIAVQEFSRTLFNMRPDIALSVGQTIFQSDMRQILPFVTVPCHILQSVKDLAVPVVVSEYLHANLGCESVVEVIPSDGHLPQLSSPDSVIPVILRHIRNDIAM
UniProt Q5U431, sequence (whole entry, looked up): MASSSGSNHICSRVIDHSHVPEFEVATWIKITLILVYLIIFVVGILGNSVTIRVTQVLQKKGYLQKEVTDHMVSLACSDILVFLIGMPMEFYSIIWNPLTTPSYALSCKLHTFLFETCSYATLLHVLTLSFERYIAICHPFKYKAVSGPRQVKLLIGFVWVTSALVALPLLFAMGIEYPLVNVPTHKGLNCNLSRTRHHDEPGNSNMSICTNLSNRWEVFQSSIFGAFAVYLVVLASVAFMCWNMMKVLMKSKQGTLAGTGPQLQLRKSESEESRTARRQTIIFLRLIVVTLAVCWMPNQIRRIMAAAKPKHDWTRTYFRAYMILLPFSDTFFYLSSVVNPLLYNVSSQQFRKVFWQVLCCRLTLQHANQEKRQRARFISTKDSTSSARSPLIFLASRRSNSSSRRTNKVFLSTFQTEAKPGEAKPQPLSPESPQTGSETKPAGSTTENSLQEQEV
UniProt P17706, sequence (whole entry, looked up): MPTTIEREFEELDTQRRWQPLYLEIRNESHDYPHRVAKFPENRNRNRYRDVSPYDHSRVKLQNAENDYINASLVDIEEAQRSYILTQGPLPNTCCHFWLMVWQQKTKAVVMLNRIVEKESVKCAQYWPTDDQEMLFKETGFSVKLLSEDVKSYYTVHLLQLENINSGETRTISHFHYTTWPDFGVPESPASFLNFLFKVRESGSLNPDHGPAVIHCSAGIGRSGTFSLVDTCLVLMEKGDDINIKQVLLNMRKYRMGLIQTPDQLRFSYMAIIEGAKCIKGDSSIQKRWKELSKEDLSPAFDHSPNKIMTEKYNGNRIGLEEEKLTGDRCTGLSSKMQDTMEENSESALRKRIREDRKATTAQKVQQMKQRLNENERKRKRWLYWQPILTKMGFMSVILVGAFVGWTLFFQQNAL
UniProt P36507, sequence (whole entry, looked up): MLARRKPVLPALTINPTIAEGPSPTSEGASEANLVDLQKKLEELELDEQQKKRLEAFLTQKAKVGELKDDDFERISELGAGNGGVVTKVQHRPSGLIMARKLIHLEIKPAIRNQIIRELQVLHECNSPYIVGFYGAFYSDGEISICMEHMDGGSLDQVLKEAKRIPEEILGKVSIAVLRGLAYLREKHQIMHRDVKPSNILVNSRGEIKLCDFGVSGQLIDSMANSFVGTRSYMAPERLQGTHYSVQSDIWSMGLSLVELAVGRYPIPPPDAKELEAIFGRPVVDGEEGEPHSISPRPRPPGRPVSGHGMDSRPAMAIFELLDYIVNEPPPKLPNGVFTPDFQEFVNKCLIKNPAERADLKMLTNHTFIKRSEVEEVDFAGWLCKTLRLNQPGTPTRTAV
UniProt P10145, sequence (whole entry, looked up): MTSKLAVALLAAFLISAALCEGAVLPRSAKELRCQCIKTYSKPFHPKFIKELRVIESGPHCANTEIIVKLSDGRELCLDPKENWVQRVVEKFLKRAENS
UniProt O60930, sequence (whole entry, looked up): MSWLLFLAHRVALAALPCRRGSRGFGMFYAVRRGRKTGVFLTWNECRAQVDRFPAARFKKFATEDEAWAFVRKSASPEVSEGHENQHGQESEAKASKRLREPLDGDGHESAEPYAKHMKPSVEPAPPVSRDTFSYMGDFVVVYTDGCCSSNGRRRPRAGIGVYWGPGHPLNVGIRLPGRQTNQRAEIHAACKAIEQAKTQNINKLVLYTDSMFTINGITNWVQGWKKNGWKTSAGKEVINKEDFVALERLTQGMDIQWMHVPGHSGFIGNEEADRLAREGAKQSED
UniProt P08172, sequence (whole entry, looked up): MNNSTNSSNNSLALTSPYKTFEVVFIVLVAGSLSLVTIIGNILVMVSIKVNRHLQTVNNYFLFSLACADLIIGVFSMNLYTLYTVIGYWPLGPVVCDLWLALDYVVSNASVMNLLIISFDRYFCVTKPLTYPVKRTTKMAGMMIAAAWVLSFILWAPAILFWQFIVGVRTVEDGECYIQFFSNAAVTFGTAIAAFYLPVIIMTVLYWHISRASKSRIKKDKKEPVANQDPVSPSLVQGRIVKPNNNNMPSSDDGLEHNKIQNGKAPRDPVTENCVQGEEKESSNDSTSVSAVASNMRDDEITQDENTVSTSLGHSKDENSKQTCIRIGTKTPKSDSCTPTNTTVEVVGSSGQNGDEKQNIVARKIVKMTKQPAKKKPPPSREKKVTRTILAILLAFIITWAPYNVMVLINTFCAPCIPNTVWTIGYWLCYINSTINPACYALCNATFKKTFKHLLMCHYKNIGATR
UniProt P51531, sequence (whole entry, looked up): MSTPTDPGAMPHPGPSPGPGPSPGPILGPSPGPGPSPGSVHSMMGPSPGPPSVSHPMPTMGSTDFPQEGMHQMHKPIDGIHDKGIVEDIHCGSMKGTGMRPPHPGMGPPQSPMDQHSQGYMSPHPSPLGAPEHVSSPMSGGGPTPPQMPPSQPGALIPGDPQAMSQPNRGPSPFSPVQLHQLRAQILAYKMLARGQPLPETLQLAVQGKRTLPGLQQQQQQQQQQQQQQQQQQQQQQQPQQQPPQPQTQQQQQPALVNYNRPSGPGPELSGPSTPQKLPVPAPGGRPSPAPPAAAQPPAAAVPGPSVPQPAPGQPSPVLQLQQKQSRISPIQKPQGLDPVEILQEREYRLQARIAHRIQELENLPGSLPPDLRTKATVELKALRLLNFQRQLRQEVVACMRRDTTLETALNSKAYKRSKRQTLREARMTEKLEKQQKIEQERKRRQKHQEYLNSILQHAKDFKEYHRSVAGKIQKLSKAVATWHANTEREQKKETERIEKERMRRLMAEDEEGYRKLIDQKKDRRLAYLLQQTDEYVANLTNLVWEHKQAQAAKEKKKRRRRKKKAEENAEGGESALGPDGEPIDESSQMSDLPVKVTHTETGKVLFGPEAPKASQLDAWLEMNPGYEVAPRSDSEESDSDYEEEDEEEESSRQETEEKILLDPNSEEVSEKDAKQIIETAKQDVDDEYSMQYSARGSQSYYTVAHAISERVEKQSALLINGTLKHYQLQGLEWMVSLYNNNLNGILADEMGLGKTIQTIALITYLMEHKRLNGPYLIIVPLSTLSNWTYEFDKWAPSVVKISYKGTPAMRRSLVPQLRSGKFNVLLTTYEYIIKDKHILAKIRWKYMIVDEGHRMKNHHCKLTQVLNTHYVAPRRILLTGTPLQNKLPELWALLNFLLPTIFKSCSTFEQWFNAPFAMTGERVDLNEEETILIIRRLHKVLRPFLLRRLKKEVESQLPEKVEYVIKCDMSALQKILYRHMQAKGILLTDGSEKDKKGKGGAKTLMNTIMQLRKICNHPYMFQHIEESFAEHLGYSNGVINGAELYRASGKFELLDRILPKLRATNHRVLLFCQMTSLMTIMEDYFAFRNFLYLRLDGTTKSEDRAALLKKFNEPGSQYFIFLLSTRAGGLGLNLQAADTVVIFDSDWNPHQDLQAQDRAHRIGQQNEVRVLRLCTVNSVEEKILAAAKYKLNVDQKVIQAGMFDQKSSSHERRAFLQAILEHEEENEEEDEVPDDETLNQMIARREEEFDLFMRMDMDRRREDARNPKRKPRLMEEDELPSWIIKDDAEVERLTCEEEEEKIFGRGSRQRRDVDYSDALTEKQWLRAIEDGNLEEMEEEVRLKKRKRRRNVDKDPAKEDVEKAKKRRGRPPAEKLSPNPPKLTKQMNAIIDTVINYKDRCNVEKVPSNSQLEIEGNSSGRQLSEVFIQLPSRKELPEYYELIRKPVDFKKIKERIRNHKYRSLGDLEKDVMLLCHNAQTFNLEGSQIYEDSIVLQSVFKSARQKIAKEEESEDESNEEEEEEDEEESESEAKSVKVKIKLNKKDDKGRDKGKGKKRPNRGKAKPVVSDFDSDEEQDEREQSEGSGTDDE
UniProt P37231, sequence (whole entry, looked up): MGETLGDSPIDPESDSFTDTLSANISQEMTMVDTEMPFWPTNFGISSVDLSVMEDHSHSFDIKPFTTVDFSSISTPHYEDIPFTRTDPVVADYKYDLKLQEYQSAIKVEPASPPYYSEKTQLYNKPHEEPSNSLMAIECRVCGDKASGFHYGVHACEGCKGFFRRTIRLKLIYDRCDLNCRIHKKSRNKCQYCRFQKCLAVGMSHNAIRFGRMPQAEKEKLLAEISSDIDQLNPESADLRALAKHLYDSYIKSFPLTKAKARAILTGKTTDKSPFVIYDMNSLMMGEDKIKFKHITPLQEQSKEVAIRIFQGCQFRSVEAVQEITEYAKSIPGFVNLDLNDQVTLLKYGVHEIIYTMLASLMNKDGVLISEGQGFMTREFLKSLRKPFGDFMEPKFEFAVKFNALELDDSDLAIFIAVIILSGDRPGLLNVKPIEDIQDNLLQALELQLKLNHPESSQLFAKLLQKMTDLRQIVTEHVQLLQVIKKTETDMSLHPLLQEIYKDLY
UniProt P48145, sequence (whole entry, looked up): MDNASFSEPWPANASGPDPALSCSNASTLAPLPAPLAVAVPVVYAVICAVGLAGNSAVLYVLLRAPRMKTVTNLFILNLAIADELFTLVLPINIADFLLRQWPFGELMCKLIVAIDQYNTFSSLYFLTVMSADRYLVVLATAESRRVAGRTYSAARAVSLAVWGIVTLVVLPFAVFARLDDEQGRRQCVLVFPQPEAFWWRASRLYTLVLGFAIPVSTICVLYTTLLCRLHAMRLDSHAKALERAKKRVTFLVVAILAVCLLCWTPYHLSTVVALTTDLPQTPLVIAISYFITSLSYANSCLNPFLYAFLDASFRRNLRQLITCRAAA

For `CC1(C)C[C@@H](Nc2cccc(-c3sc(C(=O)O)c(OCC(=O)O)c3Cl)c2)CCN1S(=O)(=O)Cc1cccc(NC(=O)CN2CCC(c3ccc4c(c3)oc(=O)n4C3CCC(=O)NC3=O)CC2)c1` (some centres unmarked), the DC50 was 0.238 ± 0.031 µM (Tyrosine-protein phosphatase non-receptor type 2 (PTPN2, Homo sapiens, UniProt P17706); degrader, HiBiT; B16-F10 cells; 24 h).
`Cc1c[nH]c2nccc(-c3ccc(C(=O)N[C@@H]4c5c(F)cc(C(F)F)cc5C[C@@H]4O)cn3)c12` has a Kd of 0.255 µM (Dual specificity mitogen-activated protein kinase kinase 2 (MAP2K2, Homo sapiens, UniProt P36507); binding, competition with immobilised ligand).
`CC(CCC(=O)NCC(=O)O)C1CCC2C3C(O)CC4CC(O)CCC4(C)C3CCC12C` (centres unmarked) gave an EC50 of greater than 200 µM (G-protein coupled receptor 39; calcium signal, agonist, fluorescence).
For `Nc1nnc(-c2ccccc2O)cc1N1CC2CCC(C1)N2c1ccnc(C#CCCN2CCCCCC2)c1`, the DC50 was 0.00025 µM (SWI/SNF-related matrix-associated actin-dependent regulator of chromatin subfamily A member 2 (SMARCA2, Homo sapiens, UniProt P51531); degrader, immunofluorescence; SW1573).
For `Cc1cc(O)c(=O)c(O)cc1C(=O)N1CCN(C(=O)c2cccc3ccccc23)CC1`, the Ki was 6 µM (Ribonuclease H1 (Homo sapiens, UniProt O60930); enzyme activity, inhibitor, FRET cleavage; catalytic domain, enzyme-substrate binding).
With `CC(=O)N[C@@H]1[C@@H](O[C@@H]2O[C@H](C(=O)O)[C@@H](O[C@@H]3O[C@H](COS(=O)(=O)O)[C@@H](OS(=O)(=O)O)[C@H](O[C@@H]4O[C@H](C(=O)O)[C@@H](OS(=O)(=O)O)[C@H](OS(=O)(=O)O)[C@H]4OS(=O)(=O)O)[C@H]3NC(C)=O)[C@H](OS(=O)(=O)O)[C@H]2OS(=O)(=O)O)[C@H](OS(=O)(=O)O)[C@@H](COS(=O)(=O)O)O[C@H]1N=[N+]=[N-]` the EC50 was 24.1 ± 2.4 µM (Interleukin-8 (CXCL8, Homo sapiens, UniProt P10145); probe displacement, FP competition; protein 800 nM, together with: TAMRA-labelled sHA tetramer probe).
`CC(CCC(=O)NCCS(=O)(=O)O)C1CCC2C3CCC4CC(OS(=O)(=O)O)CCC4(C)C3CC(O)C12C` (centres unmarked) gave an EC50 of greater than 200 µM (G-protein coupled bile acid receptor 1 (GPBAR1, Homo sapiens, UniProt Q8TDU6); agonist).
`Cc1cccc2c1N(C(=O)n1ccnn1)CC2` has a Kd of 32.8 µM and 35.2 µM and 48.8 µM (KAI2 (Arabidopsis thaliana, UniProt Q9SZU7, I193A); ITC; I193A mutant).
With `CC(C)C[C@H](NC(=O)[C@H](CC(C)C)NC(=O)CNC(=O)[C@H](C)NC(=O)[C@H](C)NC(=O)[C@@H](CCCNC(=N)N)NC(=O)CNC(=O)CCCCNC(=O)CCCCNC(=O)CCCCNC(=O)[C@H](CCCCN)NC(=O)[C@H](Cc1ccc(O)cc1)NC(=O)[C@@H](N)Cc1c[nH]c2ccccc12)C(N)=O` the EC50 was greater than 10 µM (Neuropeptides B/W receptor type 1 (NPBWR1, Homo sapiens, UniProt P48145); calcium signal, agonist).
`CC(CCC(=O)NCCS(=O)(=O)O)C1CCC2C3C(O)CC4CC(O)CCC4(C)C3CC(O)C12C` (centres unmarked) has an EC50 of greater than 200 µM (G-protein coupled receptor 39; calcium signal, agonist, fluorescence).
For `C=CCn1c(=O)c2ccccc2n2c(SCC(=O)Nc3ccc(NC(C)=O)cc3)nnc12`, the Kb was 1.41 µM (Muscarinic acetylcholine receptor M2 (CHRM2, Homo sapiens, UniProt P08172); allosteric modulator).
For `COC1CN([C@H]2CC[C@H]([C@@]3(C)Oc4c(Cl)cc(C(=O)NCc5c(SC)cc(C)[nH]c5=O)c(C)c4O3)CC2)C1`, “log2 fold change” read 2.31 (RNA-seq, item: BMI1; human, whole blood; dose not given, 24 h; reference: pretreatment baseline).
`Cc1c(Cc2ccc(F)c(OC(C)C(=O)O)c2)c2ccc(C(=O)NC(C)c3ccc(C(C)(C)C)cc3)cc2n1CC(C)C` (centres unmarked) has an IC50 of 0.0084 µM (Peroxisome proliferator-activated receptor gamma (PPARG, Homo sapiens, UniProt P37231); ligand displacement, TR-FRET).
`Nc1ncnc2c1c(-c1ccc(Oc3ccccc3)cc1)nn2C1CCCC1` gave a Ki of 0.11 µM (Proto-oncogene tyrosine-protein kinase Src (SRC, Gallus gallus, UniProt P00523, K249E/P250E/Y527F); enzyme activity, inhibitor).
